# Assay results of several laboratories.
# Each numbered part is a random draw from the data of one study; scales do not carry over between parts. Positions count from the first letter of the parent shown.

# Series 1
# Target: Interferon regulatory factor 3, full length, phosphomimetic (IRF3, Homo sapiens, UniProt Q14653, residues 1-427, S386D/S396D/S398D/S402D/T404D/S405D)
# Sequence of UniProt Q14653 (whole entry, unmodified, looked up): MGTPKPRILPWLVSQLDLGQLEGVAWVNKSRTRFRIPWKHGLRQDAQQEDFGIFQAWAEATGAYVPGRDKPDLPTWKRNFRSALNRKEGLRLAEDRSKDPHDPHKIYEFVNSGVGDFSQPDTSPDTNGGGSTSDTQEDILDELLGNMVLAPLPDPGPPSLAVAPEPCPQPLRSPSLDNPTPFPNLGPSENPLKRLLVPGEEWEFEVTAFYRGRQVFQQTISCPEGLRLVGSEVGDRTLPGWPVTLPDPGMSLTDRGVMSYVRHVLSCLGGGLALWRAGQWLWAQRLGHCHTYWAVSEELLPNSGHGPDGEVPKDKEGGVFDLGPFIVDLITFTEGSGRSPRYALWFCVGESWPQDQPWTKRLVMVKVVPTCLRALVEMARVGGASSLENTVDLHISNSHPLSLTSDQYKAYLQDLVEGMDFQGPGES
# Method: protein-binding microarray
# Form: double-stranded DNA, one strand shown
# Sample: in vitro
# Tested at: 2540 nM top
# Notes: 60-bp whole probe
# Together with: salmon DNA 0.4 mg/ml
# Reference: random background probes
# Reading: higher = stronger binding
# Shared flanks, not repeated: GCCTAGCAC … GTCTTGATTCGCTTGACGCTGCTG
Oligonucleotide,fitted relative affinity [z-score]
TCAAGTCCCATGTTGCAGACTGTGCTA,0.153
AGGATCCAGCCTGCAACCTCGTGCTAG,0.552
GACGGTATCCGTCTCGGGACGTGCTAG,4.7
TTACGTTCCCTTTTCCTTTAGTGCTAG,6.25
TTTGAACTGGGGTATCGATTAGTGCTA,-0.217
TTAGATTGCAGTTTCGATTAGTGCTAG,4.58
GACGGTTTCCTTCTCCAGACGTGCTAG,10.1
TTAGGACTGGGTCTTGGTTAGTGCTAG,-0.925
GACGGATTCGACACTGGGGACGTGCTA,0.213
GACGATCTCAGGATCGAGACGTGCTAG,0.374
TTAGAACTGGGCACTGGATTAGTGCTA,-0.923
GACGATCTGAGTCTCGAGACGTGCTAG,0.00723
TACGAACTGGGGACTGGAGACGTGCTA,-0.684
GAGGGTCTCGGTATCGGGACGTGCTAG,0.808
TCATTACCGCATATCGGACTGTGCTAG,0.606
TTAGGTATCAGGTTTCGGTTAGTGCTA,4.92
GACGAACTGTGGTTTCGAGACGTGCTA,1.14
GACGGTCTCATTATCCTGACGTGCTAG,1.62
GACGGTATCCGACTGCTGACGTGCTAG,2.36
TCATCTTTATGCACTCTCACTGTGCTA,0.898
TTAGATTTTTTTTCCTAATTGTGCTAG,1.72
TTTTTTCTTTTATTAGTGACGTGCTAG,3.4
GACGAGTCCAGTTTCGAGACGTGCTAG,2.2
TTAGGTATCGACTTTCGGTAAGTGCTA,1.48
TACTGTGTGCATCTATCTTAGTGCTAG,0.183

# Series 2
# Target: Sal-like protein 4, full length isoform A (SALL4, Homo sapiens, UniProt Q9UJQ4, residues 1-1053)
# Sequence of UniProt Q9UJQ4 (whole entry, looked up): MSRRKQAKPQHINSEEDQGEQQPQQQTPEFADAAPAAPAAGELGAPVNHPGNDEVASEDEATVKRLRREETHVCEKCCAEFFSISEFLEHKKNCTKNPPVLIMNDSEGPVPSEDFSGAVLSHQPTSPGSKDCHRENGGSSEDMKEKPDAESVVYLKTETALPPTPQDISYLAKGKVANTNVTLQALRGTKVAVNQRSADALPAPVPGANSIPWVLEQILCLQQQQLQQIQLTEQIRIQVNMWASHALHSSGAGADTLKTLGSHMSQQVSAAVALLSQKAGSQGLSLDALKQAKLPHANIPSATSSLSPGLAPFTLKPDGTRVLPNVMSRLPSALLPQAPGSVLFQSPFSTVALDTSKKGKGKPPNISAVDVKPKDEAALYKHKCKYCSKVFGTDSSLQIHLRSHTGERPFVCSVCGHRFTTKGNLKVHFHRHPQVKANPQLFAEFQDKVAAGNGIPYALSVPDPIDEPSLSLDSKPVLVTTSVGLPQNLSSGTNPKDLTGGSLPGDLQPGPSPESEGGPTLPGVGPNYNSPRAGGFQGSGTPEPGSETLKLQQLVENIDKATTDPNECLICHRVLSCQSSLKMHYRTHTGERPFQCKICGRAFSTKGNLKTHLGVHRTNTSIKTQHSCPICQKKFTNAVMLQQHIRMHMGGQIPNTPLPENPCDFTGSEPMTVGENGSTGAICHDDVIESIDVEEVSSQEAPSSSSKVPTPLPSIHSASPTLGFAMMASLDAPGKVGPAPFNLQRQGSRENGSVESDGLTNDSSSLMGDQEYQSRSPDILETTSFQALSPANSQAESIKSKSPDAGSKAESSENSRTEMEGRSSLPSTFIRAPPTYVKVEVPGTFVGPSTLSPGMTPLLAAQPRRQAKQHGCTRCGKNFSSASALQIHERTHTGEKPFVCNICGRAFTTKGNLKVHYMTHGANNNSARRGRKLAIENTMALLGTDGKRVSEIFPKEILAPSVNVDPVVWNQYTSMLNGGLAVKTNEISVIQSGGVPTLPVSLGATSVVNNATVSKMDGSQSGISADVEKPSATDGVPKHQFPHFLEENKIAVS
# Method: universal PBM
# Form: double-stranded DNA, one strand shown
# Sample: in vitro
# Tested at: 600 nM
# Notes: 8-mer, flanks averaged, mean of replicates
# Reading: higher = stronger binding
Oligonucleotide,E-score
CACACCCC,-0.151
ATGTAGAC,0.082
CCAAATGC,-0.136
CAGGTAAG,-0.0167
CAGTTACA,0.21
AAGGCGGC,-0.168
CTGCGATC,-0.084
CCGACAGG,-0.201
TAAGCAGA,-0.0185
GAGTCCCA,-0.241
GTTCTTTA,0.116
TATAATGA,0.336
TAAAGCTA,0.0847
CGGCAAAG,-0.258
GCCGCAAA,-0.0601
AAAAGTAA,0.327
AAGTGGCC,-0.14
CAGTGCGA,-0.0835
AACTGACG,-0.046
AAGGCAAA,0.183
CCTGCGAA,-0.0489
AGAGTTCG,-0.0722
TACTACGA,0.134
AGAATCCC,-0.0653
AAGAATCC,0.032

# Series 3
# Target: ABI1, truncated, D143A, DHFR fusion (Arabidopsis thaliana)
# Method: DHFR PCA, deep sequencing
# Sample: yeast
# Notes: methotrexate growth selection, single substitutions
# Together with: (+)-ABA 0.0091 µM
# Reference: wild-type fitted maximum
# Reading: higher = stronger binding
# Starting sequence: PYL1, truncated, DHFR fusion (Arabidopsis thaliana); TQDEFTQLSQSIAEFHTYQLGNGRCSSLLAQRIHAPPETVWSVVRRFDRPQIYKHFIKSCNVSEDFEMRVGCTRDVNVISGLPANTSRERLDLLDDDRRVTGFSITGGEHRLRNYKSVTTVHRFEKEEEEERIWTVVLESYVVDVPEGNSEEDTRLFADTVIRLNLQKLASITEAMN; partner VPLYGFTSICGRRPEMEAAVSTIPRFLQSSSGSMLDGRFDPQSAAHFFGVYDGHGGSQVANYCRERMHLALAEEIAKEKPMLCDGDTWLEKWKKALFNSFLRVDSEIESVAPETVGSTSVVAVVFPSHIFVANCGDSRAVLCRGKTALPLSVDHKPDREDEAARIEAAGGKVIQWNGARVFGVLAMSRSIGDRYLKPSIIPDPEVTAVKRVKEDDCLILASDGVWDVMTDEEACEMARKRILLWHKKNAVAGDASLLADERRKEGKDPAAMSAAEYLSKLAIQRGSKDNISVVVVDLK
Change,relative binding score
R132Y,4.7%
T173L,-3.33%
S80M,44.7%
R69W,-3.99%
S59V,0.139%
S150R,7.63%
K116G,7.45%
Y18I,-4.48%
V118P,1.72%
L166K,-1.6%
E129C,28.6%
I133E,59.2%
R49F,-3.9%
S26E,-2.04%
P37H,-3.69%
D96K,-6.54%

# Series 4
# Target: Histone acetyltransferase KAT6A, winged helix 1, GST fusion (KAT6A, Homo sapiens, UniProt Q92794, residues 1-85)
# Method: protein binding microarray
# Form: double-stranded DNA, one strand shown
# Sample: in vitro
# Tested at: not given
# Notes: 8-mer, flanks averaged, mean of 2 arrays, mostly near background
# Reference: not given
# Reading: higher = stronger binding
# Residues (chain): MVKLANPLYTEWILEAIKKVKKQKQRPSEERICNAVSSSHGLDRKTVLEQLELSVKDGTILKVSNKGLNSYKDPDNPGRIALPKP
Oligonucleotide,E-score
CCTATCAC,-0.178
CAATACGC,0.125
AACGCGTG,0.348
CATTCAAA,-0.081
ATCCGTGG,0.136
TAATCAAA,-0.143
GCTTTGGA,0.0785
CAATTTCA,-0.177
CAGCCCCA,-0.134
CCTATACC,0.0582
GATGGTGC,-0.117
AACCCGTA,0.36
GGCGCTTA,0.347
AATTACGC,0.0757
AGTTGGAG,-0.171
AGTTAGTA,-0.0957
GCGTACTA,0.275
ATTAGATG,-0.231
ATTCCGTC,0.148

# Series 5
# Target: RNA binding protein fox-1 homolog 2, RRM domain, GST-SBP tag (RBFOX2, Homo sapiens, UniProt O43251-10, residues 100-194)
# Method: RNA Bind-n-Seq
# Form: RNA
# Sample: in vitro
# Tested at: 365 nM
# Notes: natural RNA segment, single round, ends assumed
# Reference: no-protein control
# Reading: higher = stronger binding
# Shared flanks, not repeated: GGGAGUUCUACAGUCCGACGAUC … UGGAAUUCUCGGGUGCCAA
# Construct (chain): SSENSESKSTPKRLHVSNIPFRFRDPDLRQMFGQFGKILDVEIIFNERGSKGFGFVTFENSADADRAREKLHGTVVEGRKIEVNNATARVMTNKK
Oligonucleotide,RBNS enrichment (R)
GAGCAGGCUUCAAACGAUGUGAAAUAAGCUGAGAUGGCUACAUGAUAUUCUUCAUCUCAUCCUGUGGGAUUCUGCAAUCAUAAAACACAGGAAAGGGGAAUUCUGUGAUG,0.58
UGUGAAUUCGCAUUGCUGUUUUGUGUACUAAAACGUAACCAUUGGCAUUGUGAACAACAAGCUCUUAGUGGUGUAUUUACCUGUUAAAACUUAAAAGCAGUGUUAGUGAG,0.23
GGGGGGCAGAAAGGAGAUAAUCUCAAUGUGUUCUUUCCUGUAUGCCUUGGCUCUAACUCUGCUGCUCUGGUCUCCCAGAGCCUCUAGGGGCAGGGGAGUGCUCCACAAGG,0.244
UCAGGUAUUAUUUACUUUUAUUUUUUUGACCUGAAUCGGGAGCCACACUUGGCCCUCUUCCUCUCCAAAGCGCCAGAACCUCCUUCUCUUUGGAGAAUGGGGAGGCCUCU,0.361
AUGCAUACAUUCCACUACUGACACUCUCAAGGUAAUAUUAAACAUGAUCUAGGUACUAAGAUAUUCACUGUGAACCCGAUCUAUUGCACAAAUGGAGUCCUUUUGUAUUA,0.26
GUGCUCCUUGGCUGGGUGAGCUGCCAGGCAAGUUUAAAUAUGCUGUGUGUGCCACAUUUUUAAAUUUUGUCAAGGUUUACCCACACACACACCAAUCAAAACCUUAUUGG,0.385
UUUUGUUUUAAGUCUUCAAAUAUCUUGAGAAAUAGUAGACUGUAUGUUGAAAAUUGUACUGAAAUAAAGUAGAAAAUUGUUACGUACCAUAUUUGUAACUAUCAACUUUU,0.694
UCGUACAGUUGGGAUAGGAGGCCAUUCAUUCCCAUGGGCACAGCUAACAUUAUCCCCCAGUGAUUACUUUCGAUUACACUGAAGAGACCACCUUGUCUUUAAAGAUCACU,0.298
CCUGGAAUAUUAGAUGGAAAGCUUCACAUUAGCAUUUUGUGCAUAAUGAUAGAAACAGAUUCUGAUAAUACAAGGGGAGGGUCUAGGUACUCUUUAAGUGAUAGAAUAUG,0.406
GCAGGUGAGCUUUGCUUAUGUAGUUUGCUUUCACCAUAUAGACUGAGAGAAGAUUUCAGACUUCUUUUUCUCAGAAAGCAUGAAGAAUUUAUGAAGUAUGGAAAAGAAGC,8.39
GCAACAAAUGUUUUACUAUUUUUACAGGAUACUGUAAGGAAUAAUUUGACUUUUAAGAAAUCUUAAAUAUAAAUUUUCUGUGCAUUAAUGUAGUACCUCAUAGUUAAAAC,1.17
CACGAAGGGCAUCCGCAAUGUUGGUUUCACUGAGAGCUGCCUCCUGGUCUCUUCACCACUGUAGUUCUCUCAUUUCCAAACCAUCAGCUGCUUUUAAAAUAAGAUCUCUU,0.42

# Excerpt of the above (series 1):
Oligonucleotide,fitted relative affinity [z-score]
TTTGAACTGGGGTATCGATTAGTGCTA,-0.217
TTAGATTGCAGTTTCGATTAGTGCTAG,4.58
GACGGTTTCCTTCTCCAGACGTGCTAG,10.1
TTAGGACTGGGTCTTGGTTAGTGCTAG,-0.925
GACGGATTCGACACTGGGGACGTGCTA,0.213
GACGATCTCAGGATCGAGACGTGCTAG,0.374
TTAGAACTGGGCACTGGATTAGTGCTA,-0.923
GACGATCTGAGTCTCGAGACGTGCTAG,0.00723
TACGAACTGGGGACTGGAGACGTGCTA,-0.684
GAGGGTCTCGGTATCGGGACGTGCTAG,0.808
TCATTACCGCATATCGGACTGTGCTAG,0.606
TTAGGTATCAGGTTTCGGTTAGTGCTA,4.92
GACGAACTGTGGTTTCGAGACGTGCTA,1.14
GACGGTCTCATTATCCTGACGTGCTAG,1.62
